Experimental data of several laboratories.
Compare with care: the assays were run in different laboratories. Several values in a cell are separate wells, animals, samples, runs or records. ± gives the spread as reported. ≈ marks a conversion by molar mass, not a printed value.

Compound	organism	assay	system	conditions	scale	endpoint	result
C[C@H]1COCCN1c1nc(NCc2cccnc2C(F)(F)F)c2cccnc2n1	Brugia malayi	–	SCID mouse, peritoneal cavity	dose not given, 6 weeks post-treatment, dosing x14d	–	maximum microfilaria count	2600 microfilariae per mouse
CCCCc1ccc(CNc2nc(N(C)C)nc(N(C)C)c2/N=N/c2ccc(Cl)cc2)cc1	Plutella xylostella	leaf dipping	–	12.5 mg/L	–	mortality	50%
CC(C)C[C@H](NC(=O)[C@H](CCCNC(=N)N)NC(=O)[C@H](Cc1c[nH]c2ccccc12)NC(=O)[C@H](CCCNC(=N)N)NC(=O)[C@H](Cc1c[nH]c2ccccc12)NC(=O)[C@H](Cc1c[nH]c2ccccc12)NC(=O)[C@H](Cc1c[nH]c2ccccc12)NC(=O)[C@H](CCCNC(=N)N)NC(=O)[C@H](Cc1c[nH]c2ccccc12)NC(=O)[C@@H](N)CCCNC(=N)N)C(N)=O	Candida albicans	broth microdilution	CGMCC 2.209, RPMI 1640-MOPS	48 h, 30 °C, added: NaCl 150 mM	–	MIC	16 µM (≈ 27 µg/mL)
Cl.N=C(CC(O)c1cc2c(F)cc(F)cc2c2cc(C(F)(F)F)ccc12)Nc1ccc(F)c(F)c1 (stereo not drawn)	Plasmodium berghei	Peters suppressive test	ANKA, infected mice	oral, 4 x 30 mg/kg, day 4	relative to: untreated control	parasitemia reduction	99.8%
CC(C)CNC(=O)[C@@H](N)Cc1ccc(OP(=O)(O)CO[C@H](CO)Cn2cnc3c(N)ncnc32)cc1	human cytomegalovirus	viral replication	–	–	–	IC50	290 nM
CCCCCC[C@H]1C(=O)O[C@H](C)[C@H](NC(=O)c2cccc(NC=O)c2O)C(=O)O[C@@H](C)[C@@H]1OC(=O)CC(C)C	herpes simplex virus 1	Western blot, measured: ICP4, VP16, gD	–	concentration not given	–	viral protein level	decreased
N=C(N)NCCC[C@H](NC(=O)[C@H](Cc1c[nH]c2ccccc12)NC(=O)[C@@H](N)CCCNC(=N)N)C(=O)N[C@@H](Cc1c[nH]c2ccccc12)C(=O)N[C@@H](CCC(N)=O)C(=O)N[C@@H](Cc1ccccc1)C(=O)N[C@@H](CCC(N)=O)C(=O)N[C@@H](Cc1ccccc1)C(=O)N[C@@H](CCCCN)C(N)=O	Bacillus subtilis	–	–	–	–	MBC	19 µM
CS(=O)(=O)OCCN(CCBr)c1c(C(=O)NCCO)cc([N+](=O)[O-])cc1[N+](=O)[O-]	Homo sapiens	cell viability, resazurin or CellTiter-Glo	sample C BCP-ALL PDX cells, ex vivo	–	–	IC50	6820 nM
Cc1c([N+](=O)[O-])oc2ccc3ccccc3c12	Mycobacterium marinum	REMA	ATCC BAA-535	–	–	MIC90	0.0625 µg/mL (≈ 0.275 µM)
Cn1cc(NC(=O)c2cc(NC(=O)CN=C(N)N)cn2C)cc1C(=O)NCCC(=N)N	Bacillus subtilis	bacterial cytological profiling	ATCC 6633	concentration not given	–	cell length	3.07 µm and 3.19 µm and 3.01 µm
Cn1c(=O)ccc2ccc(F)c(CCNC[C@H]3CN(c4cnc5c(n4)NC(=O)CO5)C(=O)O3)c21	Proteus spp.	–	–	–	–	MIC50	0.12 µg/mL (≈ 0.256 µM)
C[C@@H]1CC[C@H]2[C@@H](C)C(=O)O[C@@H]3O[C@@]4(C)CC[C@@H]1[C@]32OO4	Plasmodium berghei	Peters test	ANKA, mice	oral, 4 x 30 mg/kg	–	mean survival time	9 days
COc1ccc2ccc3oc([N+](=O)[O-])cc3c2c1Br	Mycobacterium marinum	REMA	ATCC BAA-535	–	–	MIC90	0.0625 µg/mL (≈ 0.194 µM)
COC(=O)N[C@H](C(=O)N1CCC[C@H]1c1ncc(-c2ccc(-c3ccc(-c4cnc([C@@H]5CCCN5C(=O)[C@@H](NC(=O)OC)C(C)C)[nH]4)cc3)cc2)[nH]1)C(C)C	Hepatitis C virus	–	replicon cells	75% effect level, added: NS5B palm site II inhibitor, ratio 1:1	–	combination index	0.9
CC[C@H](C)[C@H](NC(=O)[C@H](C)NC(=O)[C@H](CCCCN)NC(=O)[C@H](CC(C)C)NC(=O)[C@H](C)NC(=O)[C@@H](NC(=O)[C@H](Cc1c[nH]cn1)NC(=O)[C@H](CC(C)C)NC(=O)[C@@H](NC(=O)[C@@H](NC(=O)[C@H](CCCCN)NC(=O)[C@H](C)NC(=O)[C@H](C)NC(=O)[C@H](CO)NC(=O)[C@H](CCCCN)NC(=O)[C@H](Cc1ccccc1)NC(=O)[C@@H](NC(=O)[C@H](CCCCN)NC(=O)[C@H](CC(C)C)NC(=O)[C@H](Cc1ccccc1)NC(=O)[C@H](CO)NC(=O)[C@H](CCCCN)NC(=O)[C@H](Cc1c[nH]c2ccccc12)NC(=O)[C@H](CCCCN)NC(C)=O)[C@@H](C)O)[C@@H](C)O)C(C)C)[C@@H](C)O)C(=O)N[C@@H](CO)C(=O)N[C@@H](CO)C(N)=O	Streptococcus pyogenes	–	ATCC 19615	1 strain	–	MBC90	16 µg/mL (≈ 5.45 µM)
O=C(NNc1ccccc1)c1nnc(CC23CC4CC(CC(C4)C2)C3)o1	Botryosphaeria dothidea	fungal growth, inhibitor	–	50 µg/mL	–	inhibition	100%
Cc1ncc([N+](=O)[O-])n1CCO	Gram-negative bacteria	–	–	concentration not given	–	antibacterial activity	inactive
CC(C)CC1NC(=O)C(C(=O)NC(C(=O)NC2C(=O)N3C2SC(C)(C)C3C(=O)O)c2ccccc2)=C1O (stereo not drawn)	Escherichia coli	–	ΔtolC JW5503-1	200 µM, added: 30 µg/mL 2,2'-bipyridyl	–	zone of inhibition	16.7 mm
CNC(=O)c1cc(Cl)cc(C)c1NC(=O)c1cc(Br)nn1-c1ncccc1Cl	Plutella xylostella	larvicidal activity	Raphanus sativus open field	25 ppm, 72 h, wettable granule formulation	–	mortality	92.3%
N#Cc1nn(-c2c(Cl)cc(C(F)(F)F)cc2Cl)c(N)c1[S+]([O-])C(F)(F)F (stereo not drawn)	Drosophila melanogaster	fluorescence	–	liquid food, 40 µg/mL, first instar larvae	relative to: solvent	fluorescein ingestion	-21.3%
CS(=O)(=O)CCCn1c(Cn2c(=O)n(CC(F)(F)F)c3ccncc32)cc2cc(Cl)ccc21	respiratory syncytial virus	RT-qPCR	hospitalized infants 1-24 months, nasal swab	oral, 6, 4.5 or 3 mg/kg daily, day 28, mid dose by age cohort	relative to: baseline	LS mean viral load change	-5.1 log10 copies/mL
COc1cc(NC(=O)Cn2ccc3cc(F)c(-c4cnn(C)c4)cc32)cc(OC)c1OC	Plasmodium falciparum	parasite growth	Dd2-B2 parent	–	–	IC50	4.7 nM
Nc1ncnc2c1ncn2[C@@H]1O[C@@H]2COP(=O)(O)O[C@H]3[C@@H](O)[C@H](n4cnc5c(=O)[nH]cnc54)O[C@@H]3COP(=O)(O)O[C@H]2[C@H]1O	West Nile virus	RNA sequencing Reactome analysis, measured: Amplification of signal from kinetochores (R-HSA-141424)	HFF-1	concentration not given, upregulated pathways, added: West Nile virus infection	relative to: WNV-infected without compound	fold enrichment	5.34
O=C(NC(=O)c1c(F)cccc1F)Nc1ccc(Cl)cc1	Plutella xylostella	leaf dipping	–	200 mg/L, 96 h	–	mortality	79.4 ± 4.3%
Cl.N/C(CC(O)c1cc2c(F)cc(F)cc2c2cc(C(F)(F)F)ccc12)=N\c1ccc(F)cc1 (stereo not drawn)	Plasmodium berghei	Peters suppressive test	ANKA, infected mice	oral, 4 x 10 mg/kg, day 4	relative to: untreated control	parasitemia reduction	99.9%
Nc1ccn(C[C@@H](CO)OCP(=O)(O)O)c(=O)n1	human cytomegalovirus	viral cytopathic effect	HEL, AD-169	–	–	EC50	510 nM
CC[C@H](C)[C@H](NC(=O)[C@H](CC(C)C)NC(=O)[C@H](CC(C)C)NC(=O)[C@H](Cc1c[nH]cn1)NC(=O)[C@H](CCCCN)NC(=O)[C@H](Cc1c[nH]cn1)NC(=O)[C@H](CCCNC(=N)N)NC(=O)[C@@H]1CCCN1C(=O)[C@H](Cc1ccc(O)cc1)NC(=O)[C@H](CC(C)C)NC(=O)[C@H](CCC(N)=O)NC(=O)[C@@H](N)CO)C(=O)N[C@@H](CCCCN)C(=O)N[C@@H](CCCNC(=N)N)C(=O)N[C@@H](CO)C(=O)N[C@@H](CC(C)C)C(=O)N[C@@H](CCCNC(=N)N)C(=O)N[C@@H](CS)C(=O)N[C@@H](CCCNC(=N)N)C(=O)N[C@@H](CCCCN)C(=O)N[C@@H](CS)C(=O)O	Micrococcus luteus	–	NCTC 2665	–	–	MBC	32 µg/mL
O=[N+]([O-])c1cc2c(ccc3c2ccc2cc([N+](=O)[O-])oc23)o1	Mycobacterium marinum	REMA	ATCC BAA-535	–	–	MIC90	0.0625 µg/mL (≈ 0.21 µM)
Cl.N=C(CC(O)c1cc2c(F)cc(F)cc2c2cc(C(F)(F)F)ccc12)Nc1ccc(Br)cc1 (stereo not drawn)	Plasmodium berghei	Peters 4-day test	ANKA, mouse	oral, 10 mg/kg	–	cure rate	33%
O=S(=O)(F)Cc1ccccc1	Phelipanche ramosa	seed germination, antagonist	–	added: 2-PEITC 100 nM	–	IC50	100000 nM
